Experimental data collected from several papers.
Each line is one published result; not all experiments were run side by side. ± gives the spread as reported.

SMILES = CC(C)(C)c1ccc(O)c(CN(Cc2cc(C(C)(C)C)ccc2O)C2CCC(NC(N)=O)CC2)c1 (stereo not shown); system = C57BL/6 mice, male, brain; setting = intraperitoneal, 10 mg/kg; Tmax = 0.5 h
SMILES = CN[C@@H](C)C(=O)N[C@H]1CN(C(=O)CC(C)C)CC[C@H]2CC[C@@H](C(=O)NC(c3ccccc3)c3ccccc3)N2C1=O; system = SCID mice, MDA-MB-231 xenograft, tissues; setting = oral, 100 mg/kg; Tmax = ≤ 1 h
SMILES = CC(C)(C)c1sc2ncnc(Oc3c(F)cccc3OC(F)(F)F)c2c1-c1ccc(Cl)cc1; system = wild-type mice, plasma; setting = intravenous, 1 mg/kg; Tmax = 0.25 h
SMILES = CCN1CCN(Cc2ccc(NC(=O)c3ccc(C)c(NC(=O)c4cncc(-c5cccs5)c4)c3)cc2C(F)(F)F)CC1; system = C57BL/6 mice, epithelial lining fluid; setting = intraperitoneal, 10 mg/kg; Tmax = 0.5 h
SMILES = Cc1cc(C)c(CNC(=O)c2cc(Cl)c3c(c2C)O[C@@](C)([C@H]2CC[C@H](N(C)C)CC2)O3)c(=O)[nH]1; system = female CB17 SCID mice, HT-1376 xenograft, plasma; setting = 75 mg/kg, day 1; Tmax = 1.33 h
SMILES = Cc1c(C(=O)O)ccc2c3n(nc12)[C@@H]1[C@H](C3)N(CC2CC2)[C@@]2(C(=O)Nc3cc(Cl)ccc32)[C@H]1c1cccc(Cl)c1F; system = female BALB/c nude mice, SJSA-1 xenograft, plasma; setting = oral, 1 mg/kg twice daily, 2 doses, individual animals; Tmax = 14 h
SMILES = COc1cc([C@@H]2[C@H]3CO[C@@]4(O)C(=O)[C@@H]2C=C([C@H]2Oc5cc(O)cc(O)c5C(=O)[C@@H]2O)[C@@H]34)ccc1O; system = FVB wild-type mice, plasma; setting = oral gavage, 500 mg/kg silymarin, median; Tmax = 0.75 h
SMILES = C=C1C(=O)O[C@H]2[C@H]1CC/C(CO)=C\CC[C@@]1(C)O[C@@H]21; system = BALB/c male mice, plasma; setting = oral, 757.0 µmol/kg; Tmax = 2 ± 0.333 h
SMILES = C=CC(=O)N1CC2CC(n3nc(-c4ccc(C(=O)Nc5ccccn5)cc4)c4c(N)ncnc43)CC2C1 (stereo not shown); system = SCID mice, plasma; setting = oral, 15 mg/kg twice daily; Tmax = 8.5 h
SMILES = COCc1cc(C(=O)Nc2cc([C@H]3CC[C@@H](OC(=O)NC(C)C)C3)[nH]n2)n(C)n1; system = OVCAR-3 xenograft, NOD/SCID gamma mice, plasma; setting = oral, 50 twice daily, PK/PD study; Tmax = 7.5 h
SMILES = CCc1nc(C(N)=O)c(Nc2ccc(N3CCC(N4CCN(C)CC4)CC3)c(OC)c2)nc1NC1CCOCC1; system = female FVB mice, MATE1 knockout, plasma; setting = oral, 10 mg/kg, single dose; Tmax = 1 h
SMILES = O=[N+]([O-])c1ccc(-c2ccc(O)cc2)c2cccnc12; system = ICR mice male, plasma; setting = oral, 5 mg/kg; Tmax = 0.25 h
SMILES = COc1cc([C@H]2Oc3ccc([C@H]4Oc5cc(O)cc(O)c5C(=O)[C@@H]4O)cc3O[C@@H]2CO)ccc1O; system = FVB wild-type mice, plasma; setting = oral gavage, 500 mg/kg silymarin, median; Tmax = 0.25 h
SMILES = CC1(C)CC[C@]2(C(=O)O)CC[C@]3(C)C(=CC[C@@H]4[C@@]5(C)C[C@@H](O)[C@H](OC(=O)/C=C/c6ccc(O)cc6)C(C)(C)[C@@H]5CC[C@]43C)[C@@H]2C1 (relative stereo); system = C57BL/6 mice, brain; setting = intraperitoneal, 85 µmol/kg single dose; Tmax = 2 h
SMILES = COc1cc([C@H]2Oc3cc([C@H]4Oc5cc(O)cc(O)c5C(=O)[C@@H]4O)ccc3O[C@@H]2CO)ccc1O; system = FVB wild-type mice, plasma; setting = oral gavage, 500 mg/kg silymarin, median; Tmax = 0.25 h
SMILES = CNC(=O)c1cc(Oc2ccc(NC(=O)Nc3ccc(Cl)c(C(F)(F)F)c3)c(F)c2)ccn1; system = male DBA/1lacJ Oatp1b2 knockout mice, plasma; setting = oral, 10 mg/kg single dose; Tmax = 1.5 h

Repeated from above:
SMILES = COc1cc([C@H]2Oc3cc([C@H]4Oc5cc(O)cc(O)c5C(=O)[C@@H]4O)ccc3O[C@@H]2CO)ccc1O; system = FVB wild-type mice, plasma; setting = oral gavage, 500 mg/kg silymarin, median; Tmax = 0.25 h
SMILES = CNC(=O)c1cc(Oc2ccc(NC(=O)Nc3ccc(Cl)c(C(F)(F)F)c3)c(F)c2)ccn1; system = male DBA/1lacJ Oatp1b2 knockout mice, plasma; setting = oral, 10 mg/kg single dose; Tmax = 1.5 h
